Assay results collected from several papers.
Each numbered part is a random draw from the data of one study; scales do not carry over between parts. Values joined by “and” are separate records of one study, mostly repeats; a detail may differ.
UniProt Q9UIK4, sequence (whole entry, looked up): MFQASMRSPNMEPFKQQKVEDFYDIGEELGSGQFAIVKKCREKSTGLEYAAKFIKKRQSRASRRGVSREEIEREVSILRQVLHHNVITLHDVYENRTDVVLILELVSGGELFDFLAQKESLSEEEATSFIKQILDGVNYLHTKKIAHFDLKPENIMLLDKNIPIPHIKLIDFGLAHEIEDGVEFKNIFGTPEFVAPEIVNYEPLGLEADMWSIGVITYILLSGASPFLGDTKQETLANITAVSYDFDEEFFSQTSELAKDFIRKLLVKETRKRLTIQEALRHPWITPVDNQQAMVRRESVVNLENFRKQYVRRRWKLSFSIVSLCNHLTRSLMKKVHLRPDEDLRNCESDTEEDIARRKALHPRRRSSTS
UniProt O00444, sequence (whole entry, looked up): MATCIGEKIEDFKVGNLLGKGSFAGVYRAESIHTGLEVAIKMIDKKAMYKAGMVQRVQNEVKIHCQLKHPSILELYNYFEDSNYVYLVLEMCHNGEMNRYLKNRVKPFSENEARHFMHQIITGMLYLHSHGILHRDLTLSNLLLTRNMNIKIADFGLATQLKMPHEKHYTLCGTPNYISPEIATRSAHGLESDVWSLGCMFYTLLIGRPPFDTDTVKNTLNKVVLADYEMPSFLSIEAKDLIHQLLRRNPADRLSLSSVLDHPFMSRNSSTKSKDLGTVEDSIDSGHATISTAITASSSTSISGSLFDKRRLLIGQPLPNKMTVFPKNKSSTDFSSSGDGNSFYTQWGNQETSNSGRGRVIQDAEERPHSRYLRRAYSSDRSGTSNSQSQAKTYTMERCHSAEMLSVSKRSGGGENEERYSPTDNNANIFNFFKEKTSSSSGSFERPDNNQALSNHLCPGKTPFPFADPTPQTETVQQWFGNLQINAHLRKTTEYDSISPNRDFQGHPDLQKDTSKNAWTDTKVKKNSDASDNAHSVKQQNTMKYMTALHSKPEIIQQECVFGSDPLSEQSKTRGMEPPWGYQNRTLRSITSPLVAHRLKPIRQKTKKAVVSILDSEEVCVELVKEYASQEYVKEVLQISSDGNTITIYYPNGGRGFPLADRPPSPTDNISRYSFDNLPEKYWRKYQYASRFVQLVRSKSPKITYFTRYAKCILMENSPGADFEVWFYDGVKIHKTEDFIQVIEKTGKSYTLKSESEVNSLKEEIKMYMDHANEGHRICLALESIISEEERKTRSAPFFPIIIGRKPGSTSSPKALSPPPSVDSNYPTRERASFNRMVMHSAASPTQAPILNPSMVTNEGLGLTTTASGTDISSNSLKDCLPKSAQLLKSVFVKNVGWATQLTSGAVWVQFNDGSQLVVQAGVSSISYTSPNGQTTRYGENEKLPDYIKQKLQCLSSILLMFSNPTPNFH
UniProt Q6PHR2, sequence (whole entry, looked up): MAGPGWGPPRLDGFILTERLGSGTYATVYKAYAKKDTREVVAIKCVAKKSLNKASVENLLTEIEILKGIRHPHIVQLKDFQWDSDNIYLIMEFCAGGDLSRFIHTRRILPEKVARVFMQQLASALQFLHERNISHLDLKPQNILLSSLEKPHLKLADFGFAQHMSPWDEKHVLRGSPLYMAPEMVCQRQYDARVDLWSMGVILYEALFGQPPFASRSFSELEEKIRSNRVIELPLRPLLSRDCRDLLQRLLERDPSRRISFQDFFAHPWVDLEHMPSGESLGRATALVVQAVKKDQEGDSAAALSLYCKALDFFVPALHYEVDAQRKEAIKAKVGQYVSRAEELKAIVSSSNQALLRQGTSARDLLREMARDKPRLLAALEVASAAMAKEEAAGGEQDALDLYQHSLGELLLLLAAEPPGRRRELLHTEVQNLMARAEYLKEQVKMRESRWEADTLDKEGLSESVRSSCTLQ
UniProt Q14012, sequence (whole entry, looked up): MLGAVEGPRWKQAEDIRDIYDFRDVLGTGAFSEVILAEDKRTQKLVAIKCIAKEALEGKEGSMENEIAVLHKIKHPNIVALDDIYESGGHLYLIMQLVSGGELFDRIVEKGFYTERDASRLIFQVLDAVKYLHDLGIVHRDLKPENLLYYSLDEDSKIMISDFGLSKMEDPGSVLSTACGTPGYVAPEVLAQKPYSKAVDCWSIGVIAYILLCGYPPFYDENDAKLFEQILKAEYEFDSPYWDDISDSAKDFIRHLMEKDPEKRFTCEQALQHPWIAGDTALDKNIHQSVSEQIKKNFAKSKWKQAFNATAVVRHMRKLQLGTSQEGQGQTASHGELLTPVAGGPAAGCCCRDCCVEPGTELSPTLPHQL
UniProt Q12852, sequence (whole entry, looked up): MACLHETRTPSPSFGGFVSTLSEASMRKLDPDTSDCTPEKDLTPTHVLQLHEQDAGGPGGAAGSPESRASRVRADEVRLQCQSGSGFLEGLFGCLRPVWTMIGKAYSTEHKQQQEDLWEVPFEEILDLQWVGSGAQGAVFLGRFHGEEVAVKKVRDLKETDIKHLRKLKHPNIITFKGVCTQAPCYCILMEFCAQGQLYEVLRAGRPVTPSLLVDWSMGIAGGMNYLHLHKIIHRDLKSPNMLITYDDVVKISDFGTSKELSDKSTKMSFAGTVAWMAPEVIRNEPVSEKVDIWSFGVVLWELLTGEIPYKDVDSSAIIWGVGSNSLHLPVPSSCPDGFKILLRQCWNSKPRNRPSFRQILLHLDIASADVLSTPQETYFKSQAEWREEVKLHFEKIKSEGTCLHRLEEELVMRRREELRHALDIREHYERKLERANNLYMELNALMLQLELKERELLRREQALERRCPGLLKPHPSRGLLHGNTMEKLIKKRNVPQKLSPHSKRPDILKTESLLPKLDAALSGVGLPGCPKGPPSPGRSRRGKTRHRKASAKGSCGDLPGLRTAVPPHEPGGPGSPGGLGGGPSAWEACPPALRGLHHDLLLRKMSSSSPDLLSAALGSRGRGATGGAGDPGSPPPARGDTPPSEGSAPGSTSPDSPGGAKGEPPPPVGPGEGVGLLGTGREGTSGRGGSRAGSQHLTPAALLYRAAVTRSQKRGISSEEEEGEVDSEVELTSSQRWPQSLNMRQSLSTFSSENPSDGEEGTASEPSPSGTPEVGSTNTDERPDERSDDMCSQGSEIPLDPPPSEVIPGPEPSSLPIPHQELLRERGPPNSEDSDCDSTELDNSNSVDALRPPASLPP
UniProt Q8IVW4, sequence (whole entry, looked up): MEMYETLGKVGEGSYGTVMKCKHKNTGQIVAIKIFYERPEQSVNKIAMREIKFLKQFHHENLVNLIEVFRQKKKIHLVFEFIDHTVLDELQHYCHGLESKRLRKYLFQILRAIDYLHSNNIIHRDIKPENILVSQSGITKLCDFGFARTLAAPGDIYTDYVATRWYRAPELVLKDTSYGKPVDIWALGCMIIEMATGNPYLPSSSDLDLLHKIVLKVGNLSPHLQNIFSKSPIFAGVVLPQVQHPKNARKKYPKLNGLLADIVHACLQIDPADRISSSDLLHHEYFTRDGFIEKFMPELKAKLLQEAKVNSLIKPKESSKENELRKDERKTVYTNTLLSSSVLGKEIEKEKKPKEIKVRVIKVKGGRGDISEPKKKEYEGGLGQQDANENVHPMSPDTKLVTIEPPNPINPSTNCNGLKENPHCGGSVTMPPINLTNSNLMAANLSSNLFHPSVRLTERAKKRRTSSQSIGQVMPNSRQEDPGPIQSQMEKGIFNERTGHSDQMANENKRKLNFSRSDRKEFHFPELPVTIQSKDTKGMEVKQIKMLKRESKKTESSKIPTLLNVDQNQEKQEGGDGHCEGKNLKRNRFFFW
UniProt Q9H1R3, sequence (whole entry, looked up): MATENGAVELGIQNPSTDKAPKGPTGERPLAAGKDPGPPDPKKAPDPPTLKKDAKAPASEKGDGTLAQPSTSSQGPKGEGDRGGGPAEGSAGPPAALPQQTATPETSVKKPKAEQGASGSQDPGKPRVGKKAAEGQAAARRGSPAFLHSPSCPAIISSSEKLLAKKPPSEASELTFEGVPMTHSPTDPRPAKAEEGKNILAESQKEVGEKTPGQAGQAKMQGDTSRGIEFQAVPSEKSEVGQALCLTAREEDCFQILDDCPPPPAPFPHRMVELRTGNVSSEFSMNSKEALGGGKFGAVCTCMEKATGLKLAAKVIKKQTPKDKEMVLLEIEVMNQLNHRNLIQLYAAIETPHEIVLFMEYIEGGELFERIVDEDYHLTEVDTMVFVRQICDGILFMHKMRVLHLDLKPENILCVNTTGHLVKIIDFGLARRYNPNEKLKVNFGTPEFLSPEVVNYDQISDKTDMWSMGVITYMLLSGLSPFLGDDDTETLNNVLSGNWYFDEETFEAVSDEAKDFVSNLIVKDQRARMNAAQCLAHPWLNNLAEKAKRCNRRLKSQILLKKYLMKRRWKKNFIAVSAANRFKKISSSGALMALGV
UniProt P11802, sequence (whole entry, looked up): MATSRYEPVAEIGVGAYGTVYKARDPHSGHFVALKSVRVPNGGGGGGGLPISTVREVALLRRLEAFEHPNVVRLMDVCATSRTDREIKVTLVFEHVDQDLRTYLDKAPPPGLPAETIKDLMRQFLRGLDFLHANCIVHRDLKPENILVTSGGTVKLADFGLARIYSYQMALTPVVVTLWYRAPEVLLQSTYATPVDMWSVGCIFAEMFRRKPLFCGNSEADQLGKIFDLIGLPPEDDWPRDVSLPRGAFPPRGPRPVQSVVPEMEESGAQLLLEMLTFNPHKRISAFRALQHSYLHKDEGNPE
UniProt P49840, sequence (whole entry, looked up): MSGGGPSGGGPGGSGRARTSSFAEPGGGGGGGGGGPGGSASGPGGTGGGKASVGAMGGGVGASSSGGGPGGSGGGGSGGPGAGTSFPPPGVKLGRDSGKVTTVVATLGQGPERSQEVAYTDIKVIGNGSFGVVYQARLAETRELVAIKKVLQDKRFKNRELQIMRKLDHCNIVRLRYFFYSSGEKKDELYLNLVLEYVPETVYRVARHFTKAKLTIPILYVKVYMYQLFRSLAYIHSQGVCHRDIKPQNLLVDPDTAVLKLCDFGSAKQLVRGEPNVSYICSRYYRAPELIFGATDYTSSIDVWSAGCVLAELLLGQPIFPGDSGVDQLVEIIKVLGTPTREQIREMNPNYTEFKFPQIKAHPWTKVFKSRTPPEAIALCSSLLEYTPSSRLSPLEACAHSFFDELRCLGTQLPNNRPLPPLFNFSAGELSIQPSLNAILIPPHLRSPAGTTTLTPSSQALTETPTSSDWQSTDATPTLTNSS

Set 1
Structure (SMILES): COc1ccc(-c2c(Nc3ccccn3)[nH]c3c(C4=CCCCC4)c(-c4ccccc4)nn3c2=O)cc1
Species: human patients
Sample: plasma
| assay | conditions | mean concentration [ng/mL] |
| --- | --- | --- |
| measured: S-adenosylmethionine | 200 mg once daily, 4 h | 14.6 |
| measured: methionine | 200 mg once daily, 8 h | 119000 |
| measured: methionine | 100 mg once daily, 6 h | 93700 |
| measured: methionine | 150 mg once daily, 8 h | 124000 |
| measured: S-adenosylmethionine | 100 mg once daily, 6 h | 17.6 |
| measured: methionine | 400 mg once daily, 0 h | 82100 |
| measured: methionine | 200 mg once daily, 4 h | 128000 |
| measured: methionine | 200 mg once daily, 2 h | 121000 |
| measured: S-adenosylmethionine | 100 mg once daily, 4 h | 19.9 |
| measured: S-adenosylmethionine | 100 mg once daily, 0 h | 19.3 |

Set 2
Target: Epidermal growth factor receptor (EGFR, Homo sapiens, UniProt P00533)
Observed: enzyme activity
Mode: inhibitor
Tested at: 0.5 µM
Relative to: control
| Compound | remaining activity [%] |
| --- | --- |
| COc1cc2ncnc(Nc3ccc(O)c(Br)c3)c2cc1OC | 2.22 |
| Ic1cccc(CSc2nnc(-c3ccncc3)o2)c1 | 97.1 |
| Nc1cccc(-c2cc3c(Oc4cccc(O)c4)ncnc3[nH]2)c1 | 7.89 |
| O=c1cc(-c2cccc3c2Sc2ccccc2S3)oc(N2CCOCC2)c1 | 107 |
| CN([C@@H](Cc1ccc(OS(=O)(=O)c2cccc3cnccc23)cc1)C(=O)N1CCN(c2ccccc2)CC1)S(=O)(=O)c1cccc2cnccc12 | 89.4 |
| Cn1nc2c3c(cccc31)C(=O)c1ccccc1-2 | 105 |
| Cc1nc2cc3nc(-c4cccs4)cnc3cc2n1C | 104 |
| c1ccc(-c2[nH]ncc2-c2ccnc3ccccc23)nc1 | 81.8 |
| O=C(Nc1cccc(Nc2nccc(Nc3cccc(C(F)(F)F)c3)n2)c1)C1CC1 | 87.6 |
| CN(C)C[C@H]1CCn2c(c(C3=C(c4cn(C)c5ccccc45)C(=O)NC3=O)c3ccccc32)C1 | 95.8 |
| Cc1cc2ncc(-c3ccccc3)nc2cc1C | 84.5 |
| Cc1cn(-c2cc(NC(=O)c3ccc(C)c(Nc4nccc(-c5cccnc5)n4)c3)cc(C(F)(F)F)c2)cn1 | 86.9 |
| CCN(CC)C(=O)c1ccc(Nc2nc(OCC3CCCCC3)c3[nH]cnc3n2)cc1 | 88.5 |
| O=C1C(Cl)=C(N2C(=O)CCC2=O)C(=O)c2ccccc21 | 98.4 |

Set 3
Structure (SMILES): O=C(NCCCC1CCCCC1)c1ccc(CNC(=O)c2cnn(-c3ccccc3)c2C(F)(F)F)cc1
Observed: cell-free assay
Technique: competition with immobilised ligand
Tested at: 0.1 µM
| target | remaining binding [%] |
| --- | --- |
| DAPK2 (Homo sapiens, UniProt Q9UIK4) | 98 |
| STK39 (Homo sapiens, UniProt Q9UEW8) | 100 |
| CAMK1 (Homo sapiens, UniProt Q14012) | 100 |
| MYLK2 (Homo sapiens, UniProt Q9H1R3) | 100 |
| Cyclin-dependent kinase 4, with cyclin D3 (CDK4, Homo sapiens, UniProt P11802) | 100 |
| NEK10 (Homo sapiens, UniProt Q6ZWH5) | 100 |
| PLK4 (Homo sapiens, UniProt O00444) | 96 |
| GSK3A (Homo sapiens, UniProt P49840) | 100 |
| EGFR (Homo sapiens, UniProt P00533, T790M) | 97 |
| MAP3K12 (Homo sapiens, UniProt Q12852) | 100 |
| PRKCH (Homo sapiens, UniProt P24723) | 100 |
| MAPK3 (Homo sapiens, UniProt P27361) | 93 |
| ULK3 (Homo sapiens, UniProt Q6PHR2) | 100 |
| EGFR (Homo sapiens, UniProt P00533, L861Q) | 100 |
| EGFR (Homo sapiens, UniProt P00533, G719S) | 80 |
| CDKL3 (Homo sapiens, UniProt Q8IVW4) | 100 |
| Tyrosine-protein kinase ABL1, phosphorylated (ABL1, Homo sapiens, UniProt P00519) | 88 |
| COQ8A (Homo sapiens, UniProt Q8NI60) | 100 |
| CSF1R (Homo sapiens, UniProt P07333) | 100 |

Set 4
Compound: CCOc1ccc(Nc2c3c(nc4ccccc24)CCC3)cc1
| cell line | assay | conditions | cytotoxicity |
| --- | --- | --- | --- |
| PMA-differentiated THP-1 macrophages | – | 0.2 µM, 64 h | 2% and 1% |
| PMA-differentiated THP-1 macrophages | – | 0.004 µM, 64 h | 4% and 5% |
| RAW264.7 | resazurin | 0.166 µM | 0% and -1% |
| RAW264.7 | resazurin | 3.32 µM | -5% and -6% |
| J774.1 | resazurin | 33.32 µM, 64 h | 84% and 85% |
| J774.1 | resazurin | 1.66 µM | -2% and -1% |
| HepG2 | resazurin | 0.00332 µM, 48 h | -2% and 1% |
| J774.1 | resazurin | 3.32 µM | 12% and 20% |
| J774.1 | resazurin | 0.166 µM | -2% and 2% |
